# Results collected from several papers.
# Parts stem from different laboratories: compare values within a part only. Changes are numbered by the printed parent chain.
# UniProt Q9NWZ3, sequence (whole entry, looked up): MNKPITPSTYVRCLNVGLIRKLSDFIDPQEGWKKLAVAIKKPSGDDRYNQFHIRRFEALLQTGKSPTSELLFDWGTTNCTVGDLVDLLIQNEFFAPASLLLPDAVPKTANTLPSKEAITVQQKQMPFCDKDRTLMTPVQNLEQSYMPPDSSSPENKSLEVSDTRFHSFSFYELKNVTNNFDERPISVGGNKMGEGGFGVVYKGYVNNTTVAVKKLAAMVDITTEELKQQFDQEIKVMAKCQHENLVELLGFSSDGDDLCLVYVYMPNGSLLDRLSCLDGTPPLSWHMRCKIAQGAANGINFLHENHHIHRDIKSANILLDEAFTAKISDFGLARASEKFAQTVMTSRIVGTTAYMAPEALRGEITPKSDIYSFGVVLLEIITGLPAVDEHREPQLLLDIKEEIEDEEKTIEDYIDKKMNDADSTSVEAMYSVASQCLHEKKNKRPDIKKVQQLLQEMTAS

# Series 1
# Target: RING finger protein unkempt homolog, zinc fingers 1-6, GST-SBP tag (UNK, Homo sapiens, UniProt Q9C0B0, residues 30-357)
# Method: RNA Bind-n-Seq
# Form: RNA
# Medium: in vitro
# Concentration: not given
# Setting: RNA with constant flanks, human and mouse sites, ends assumed
# Relative to: input RNA pool
# Reading: higher = stronger binding
# Residues (chain): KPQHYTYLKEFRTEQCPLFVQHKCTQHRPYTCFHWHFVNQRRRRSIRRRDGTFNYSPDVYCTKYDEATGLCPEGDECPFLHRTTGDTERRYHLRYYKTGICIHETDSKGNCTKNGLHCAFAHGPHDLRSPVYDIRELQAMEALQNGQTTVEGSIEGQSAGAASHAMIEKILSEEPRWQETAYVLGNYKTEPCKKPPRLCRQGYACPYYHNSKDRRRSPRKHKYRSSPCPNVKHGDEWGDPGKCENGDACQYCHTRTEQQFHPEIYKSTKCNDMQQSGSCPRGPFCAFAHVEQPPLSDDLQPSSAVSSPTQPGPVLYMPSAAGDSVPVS
Oligonucleotide,bound/input enrichment
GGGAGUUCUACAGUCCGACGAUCGCUGCUGAUUGUGUUCUAGGGGACGGAGUAGGGGAAGACGUUUGCUCUCCCGGAACAGCCUAUCUCAUUCCUUUCUUUCGAUUACCCGUGGCGCGGAGAGUCAGGGCGGCGGCUGCGGCACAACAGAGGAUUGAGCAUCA,0.326 ratio
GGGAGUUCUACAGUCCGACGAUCCAUCACCGGGUGGGCGAGAUGGCUCCACCCAAUGCCUACACUGUCACCGACUUGGUGGAGUAUAGCAUCAUCAUAGAACAGCUCUCCAAUGGCAAGUGGGUCCCCUUUGAUGGUGAUGACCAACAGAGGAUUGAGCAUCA,0.611 ratio
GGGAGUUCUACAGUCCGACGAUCCCUCAAGACAUCGAGUGCUGCGGAGCCCUGGAGUACUACGACAAAGCCUUUGACCGCAUCACCACAAGGAGUGAGAAGCCCCUGCGGAGCAUCAAGCGCAUCUUUCACACCGUCACCACCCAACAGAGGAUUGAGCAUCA,0.109 ratio
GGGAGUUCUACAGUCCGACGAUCCCUGAAACUUCCUGCGGUAGCUCCCUCCCUUCAGAGUUACAUCAUUAUCCUGACUCUGUGUAGGUAAAUUUCCGUGAAAUUUUUGUACAAAAAAAAAGGUAAUGAAAGAACGUUGCAAAGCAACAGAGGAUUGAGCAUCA,0.424 ratio
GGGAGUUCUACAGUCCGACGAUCCAGGAGGACCCUUCACAAAGGACUCUGGGGCCACACAGUGAACAGGAAUACUGUCAGGCAAUCUCAGAACUCCCCAGUGAGUUAAGGAAAAUGGCCACUUACCGUAAGCCCGUUGUCCUUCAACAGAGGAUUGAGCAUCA,0.0813 ratio
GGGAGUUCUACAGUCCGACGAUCAUGCAGUAUGAGACCAACAGCUUGGACUUCAAAGUCGGGGCGGAUGGGACAGUCUUCGCCACUAGGGAGUUGAAGAUCCCCUCAGAGCAGGUGGCCUUUACCGUCACUGCGCGGGAACGCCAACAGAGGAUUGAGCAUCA,0.0936 ratio
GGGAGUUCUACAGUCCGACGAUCAAUGCUCUUAUAAACAAUACCAGAGGAAUUAUUUUUUACAGUGUCCCUCACCAUGGGUCACGUUUGGCUGAAUACUCCGUUAAUAUUCGAUAUCUUCUCUUUCCCUCACUGGAAGUCAAACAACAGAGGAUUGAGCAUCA,0.443 ratio
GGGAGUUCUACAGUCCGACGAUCGAGCAACGGAGAGCCCCACUUUCUACCAGAUGCAAUGUUUGGGCAACCAGGAGCCCUAGGUAGCACUCCAUUUCUUGGUCAGCAUGGUUUUAAUUUUUUUCCCAGUGGGAUUGACUUCUCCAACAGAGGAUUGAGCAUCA,0.52 ratio

# Series 2
# Target: CCNB2, cyclin fold, Cln2 fusion (human)
# Method: yeast growth competition, sequencing
# Medium: yeast
# Setting: weak parent motif
# Relative to: not given
# Reading: higher = stronger binding
# Starting sequence: RBL2 docking peptide (human); STTRRRLFVENDS
Change,normalised enrichment score
R6I,0.0221
T3C,0.621
T3P,0.431
L7Y,-0.0799
T3F,0.482
S13N,-0.0318
E10V,0.757
F8W,0.318

# Series 3
# Target: Histone acetyltransferase KAT6A, winged helix 2, GST fusion (KAT6A, Homo sapiens, UniProt Q92794, residues 85-181)
# Method: protein binding microarray
# Form: double-stranded DNA, one strand shown
# Medium: in vitro
# Concentration: not given
# Setting: 8-mer, flanks averaged, mean of 2 arrays, mostly near background
# Relative to: not given
# Reading: higher = stronger binding
# Target sequence (chain): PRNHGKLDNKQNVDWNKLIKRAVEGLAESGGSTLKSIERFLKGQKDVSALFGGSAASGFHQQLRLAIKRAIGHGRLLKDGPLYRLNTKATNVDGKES
Oligonucleotide,E-score
ATGCACTC,-0.0893
GGACTACA,-0.1
AGGCATGG,0.0409
TAAGAATA,-0.217
AGTTGAGG,0.0242
CATAAGCA,0.117
CAGTCGTA,-0.0317
ATAACGCG,0.0141

# Mixed results
SMILES,target,read-out,method,concentration,endpoint,value
C[C@H](NC(=O)c1cnc2n1[C@](C)(Cc1ccc(C#N)cc1)C(=O)N2c1cc(Cl)c(F)c(Cl)c1)C(=O)NC1(c2ccccn2)CC1,"Interleukin-1 receptor-associated kinase 4 (IRAK4, Homo sapiens, UniProt Q9NWZ3)",cell-free assay,competition with immobilised ligand,1 µM,remaining binding,100%

# Excerpt of the above (series 2):
Change,normalised enrichment score
S13N,-0.0318
E10V,0.757
L7Y,-0.0799
